Published values gathered from unrelated publications.
A part holds a random share of what one study measured.

Sample 1 — method: RNA Bind-n-Seq; form: RNA; matrix: in vitro; tested at: 200 nM; notes: whole 134-nt RNA, ends assumed; with: 150 mM LiCl; reference: input library; direction: higher = stronger binding; library: 7-deaza-guanosine replaces G
Target: Ras GTPase-activating protein-binding protein 1, full length (G3BP1, Homo sapiens, UniProt Q13283)
Chain of UniProt Q13283 (whole entry, looked up): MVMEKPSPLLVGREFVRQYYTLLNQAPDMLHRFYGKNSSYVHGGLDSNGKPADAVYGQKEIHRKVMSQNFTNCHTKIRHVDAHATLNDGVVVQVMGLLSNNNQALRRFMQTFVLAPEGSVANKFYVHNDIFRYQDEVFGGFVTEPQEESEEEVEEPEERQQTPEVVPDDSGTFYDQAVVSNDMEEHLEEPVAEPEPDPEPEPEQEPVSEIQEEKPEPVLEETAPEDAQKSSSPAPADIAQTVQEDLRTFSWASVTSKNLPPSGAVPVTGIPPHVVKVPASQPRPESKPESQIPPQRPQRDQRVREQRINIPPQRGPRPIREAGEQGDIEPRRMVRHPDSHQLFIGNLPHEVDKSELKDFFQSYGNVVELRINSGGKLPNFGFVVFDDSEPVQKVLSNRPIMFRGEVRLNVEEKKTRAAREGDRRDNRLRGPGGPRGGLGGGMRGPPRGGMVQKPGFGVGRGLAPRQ
With `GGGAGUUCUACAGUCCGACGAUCGCAGGAAGUAAAAACAAAUGGAAAUGCUUCGGAUAGUGGCAGGGGUGGGGGUUGCAAAGGAAAGGGUGGGAUGGGAGUGGGUAAAGAGUUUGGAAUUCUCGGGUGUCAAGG` the log2 enrichment was 0.00514.
`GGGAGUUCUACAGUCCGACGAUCCAAGUCCUGUGCUACACAUCGUAUGUACCGAAUCGGUUUUUGGAAAAAAAGGAGGAAAGUAUUAUGUUACGCCGUUCGGAUCUGCACUUCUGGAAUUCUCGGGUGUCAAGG` has a log2 enrichment of -1.17.
`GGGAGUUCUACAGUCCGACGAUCGCAGGAAGUAAAAACAAAUGGAAAUGCUUCGGAUAGUGGCAGGGGUGGGGGUUGCUAAGGAAAGGGUGGGAUGGGAUUGGGUAAAGAGUUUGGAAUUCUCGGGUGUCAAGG` has a log2 enrichment of -0.303.
The log2 enrichment of `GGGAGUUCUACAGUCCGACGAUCAGUCCUGUGCUACACAUCGUAUGUACCGAAUCGGGAAAAAAAGGGUUUGGGAAAGGGAAAGUAUUAUGUUACGCCGUUCGGAUCUGCACUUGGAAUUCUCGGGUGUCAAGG` is reported as -1.66.
For `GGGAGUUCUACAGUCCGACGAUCUGGGAGGUGGAUUUUGUUUAUUUUUUUAGCUCAUUUCCAGGGGUGGGAAUUUUUUUUUAAUCUGUGUCAUGAAUAAAGUUGUUUUUGAAAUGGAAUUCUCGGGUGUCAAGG`, the log2 enrichment was -0.267.
The log2 enrichment of `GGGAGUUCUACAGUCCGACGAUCGAAAUUUGGUUAUGUGGAUUUUGAAUCUGCUGAAGACCUGGAGAAAGCGUUGGAACUCACUGGUUUGAAAGUCUUUGGCAAUGAAAUUAAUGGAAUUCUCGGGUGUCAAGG` is reported as -3.67.
With `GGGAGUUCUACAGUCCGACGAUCUCCUCAAGUCCUGUGCUACACAUCGUAUGUACCGAAUCGGGUGGGUGGGUGGAAAGUAUUAUGUUACGCCGUUCGGAUCUGCACUUCCAGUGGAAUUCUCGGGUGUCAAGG` the log2 enrichment was 0.645.
`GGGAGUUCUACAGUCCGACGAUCCCUCUGGACGAGACCAGCCAGAUGAGCGACCUCCCGGUGAAGGUGAUCCACGUGGAGAGUGGGAAGAUCCUCACAGGCACAGAUGCCCCCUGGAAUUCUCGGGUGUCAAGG` has a log2 enrichment of 0.438.
The log2 enrichment of `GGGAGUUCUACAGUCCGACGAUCAAGUCCUGUGCUACACAUCGUAUGUACCGAAUCGGGAGGGAAAAAGGGAAAAAGGGAAAGUAUUAUGUUACGCCGUUCGGAUCUGCACUUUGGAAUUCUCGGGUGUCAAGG` is reported as 0.229.
The log2 enrichment of `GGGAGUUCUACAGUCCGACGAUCACCAUGCAGGUGGGCAUCUUUGGGAAGUGGGGCAAGGGGGGGAUAGGGAGGGGGGUAACACUUUGGGAACUGGUGGUCCCAGGUCGUUUCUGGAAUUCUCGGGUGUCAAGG` is reported as 0.359.
The log2 enrichment of `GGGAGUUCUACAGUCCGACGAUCACCAUGCAGGUGGGCAUCUUUGGGAAGUGGGGCAAGGGGGGGAUAGGGAGGGGGGUAACUCUUUGGGAACAGGUGGUCCCAGGUCGUUUCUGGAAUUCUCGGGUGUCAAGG` is reported as 0.29.

Sample 2 — method: RNAcompete; form: RNA; matrix: in vitro; tested at: 20 nM; notes: 7-mer, probes averaged, single round; reference: mean of 7-mers; direction: higher = stronger binding
Target: PABPC1L2, full length, GST fusion (mouse, UniProt A0ABA7IW68)
Construct (chain): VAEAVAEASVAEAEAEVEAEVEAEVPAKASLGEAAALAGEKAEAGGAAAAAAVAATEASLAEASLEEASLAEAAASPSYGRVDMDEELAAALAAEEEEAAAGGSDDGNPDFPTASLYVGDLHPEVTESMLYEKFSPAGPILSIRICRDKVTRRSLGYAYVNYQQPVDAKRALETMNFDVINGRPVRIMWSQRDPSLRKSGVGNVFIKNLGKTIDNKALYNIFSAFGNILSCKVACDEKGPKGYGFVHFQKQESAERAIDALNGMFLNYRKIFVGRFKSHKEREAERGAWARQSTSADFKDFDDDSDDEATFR
`GUUUAUC` has a 7-mer Z-score of -0.325.
`GUCAUGC` gave a 7-mer Z-score of -0.271.
The 7-mer Z-score of `GCAGGGG` is reported as 0.167.
With `GAAAGUC` the 7-mer Z-score was 0.162.
`CAGGCCC` gave a 7-mer Z-score of -0.135.
With `AGUGUAG` the 7-mer Z-score was 0.206.
The 7-mer Z-score of `GUGUGCG` is reported as -0.0935.
For `GAGCGAU`, the 7-mer Z-score was -0.0337.
The 7-mer Z-score of `UGGAGCG` is reported as 0.287.
`CGUUGCA` has a 7-mer Z-score of -0.246.
`GACAAAG` has a 7-mer Z-score of 0.591.
`GAACAAA` has a 7-mer Z-score of 1.62.
For `UCGUUAA`, the 7-mer Z-score was -0.34.
For `AGAACAU`, the 7-mer Z-score was -0.0264.
The 7-mer Z-score of `GAGAUGC` is reported as -0.0953.
`CAAGAAU` gave a 7-mer Z-score of 0.0587.
For `AUCGGUU`, the 7-mer Z-score was -0.318.
The 7-mer Z-score of `AGGCCGC` is reported as -0.124.
`AAGAAAG` gave a 7-mer Z-score of 1.39.
With `CUACCGC` the 7-mer Z-score was -0.295.
For `GAUAUUC`, the 7-mer Z-score was -0.293.
With `CGCUCUA` the 7-mer Z-score was -0.3.
`GCGGUUC` gave a 7-mer Z-score of -0.121.
`CCAAGCC` gave a 7-mer Z-score of -0.414.
The 7-mer Z-score of `UAGAACA` is reported as 0.0642.

Sample 3 — method: RNA Bind-n-Seq; form: RNA; matrix: in vitro; tested at: not given; reference: input RNA pool; direction: higher = stronger binding
Target: RING finger protein unkempt homolog, zinc fingers 1-6, GST-SBP tag (UNK, Homo sapiens, UniProt Q9C0B0, residues 30-357)
Chain of UniProt Q9C0B0 (30-357, looked up): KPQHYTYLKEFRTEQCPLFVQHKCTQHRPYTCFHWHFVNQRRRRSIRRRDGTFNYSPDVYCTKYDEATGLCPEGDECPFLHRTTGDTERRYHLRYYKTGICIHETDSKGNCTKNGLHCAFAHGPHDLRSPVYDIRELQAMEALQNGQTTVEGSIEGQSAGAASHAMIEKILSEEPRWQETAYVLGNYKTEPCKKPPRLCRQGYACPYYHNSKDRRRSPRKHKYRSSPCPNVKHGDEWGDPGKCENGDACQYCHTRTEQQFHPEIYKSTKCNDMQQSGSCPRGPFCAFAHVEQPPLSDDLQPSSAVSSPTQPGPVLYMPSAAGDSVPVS
Notes: RNA with constant flanks, human and mouse sites, ends assumed
`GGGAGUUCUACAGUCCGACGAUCAAAUUUCCUCUCUUAAAGCCUUCUCCAAAAUUGGCAUCUCUUAUAGAUGGUUCAUCUCCUGUUAGUAUUUUGGUCUGGACCACACAACCUUGGACGAUUCCAGCCAAUGAAGCUGUUUGCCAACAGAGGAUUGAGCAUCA` has a bound/input enrichment of 0.637 ratio.
With `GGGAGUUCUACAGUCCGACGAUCCCUCACCAAAAGGUUUCGGGAACUGGAGGAAGUAUUAAUGUACAACUCACCACUUCAUGCCAUAGGAGGCUGAAGUUGACGUUGCCUUUUAAGCCUUUUACAUACACUGGUCAGUUCGGACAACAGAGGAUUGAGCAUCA` the bound/input enrichment was 0.278 ratio.
`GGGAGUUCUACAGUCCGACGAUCGCUUCUAUACUAGCUACCUUCACUGUAACAGAAGGGAAGAAAAAAAUUCCUGUUGCUGGCUGCAGAGUUCAAAAGGGACAAUUAGAAAGACAUAAGAAGUUUAAAUUAAUCCGAAACGGCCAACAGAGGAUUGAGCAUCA` has a bound/input enrichment of 3.26 ratio.
With `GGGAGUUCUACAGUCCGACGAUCGAAAAAGUUUUGUCUCCUUUACGCAGCCCGCCCCUCAUUGGAUCCGAGUCUGCUUAUGAAAGUUUUCUAAGUGCUGAUGACAAGGCUUCUGGCAGAGGUGCCGAAAGUCCUUUUGAAGAACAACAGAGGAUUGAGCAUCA` the bound/input enrichment was 0.128 ratio.
With `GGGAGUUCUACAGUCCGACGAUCACCCCGCGGAGCUGUGGCGGCAGAAUGGCGCAGACCGCCAUGUCCGAGACUUACGAUUUCUUGUUUAAAUUCUUGGUCAUCGGAAAUGCGGGAACUGGCAAAUCUUGCUUGCUUCAUCAGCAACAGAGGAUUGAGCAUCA` the bound/input enrichment was 0.109 ratio.
The bound/input enrichment of `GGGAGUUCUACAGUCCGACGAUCAUUCAAAAGGCAGUGGCAGUUUCAUAGGACAGGUACAAGCAACAUCUUUUUUGGGUCCUAUAGUUACAGGAUAACUUCUUCAAGAGUUUCUCCAGCCACAUCCUUUGUUUUUCUGAACCCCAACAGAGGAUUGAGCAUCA` is reported as 0.257 ratio.
`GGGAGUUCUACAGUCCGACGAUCUCCAGUACGGCAGCCCCAUCAGGGGCUGGGAAUGUGGCUUCAGGCUCAGGGAAUAACUCGGGGGGACCCAGCCUCUUGGUGCCACUGCCUGUAAAUCCCCCCAGUUCUCCAACGCCCAGCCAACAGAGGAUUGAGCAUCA` has a bound/input enrichment of 0.139 ratio.
With `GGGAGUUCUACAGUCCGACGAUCGUUAAAACUAAUCCUCAGGCUUCUGAGUCAGCAGACUCUAGUGAAACUGCAAACAGGAAAACUGAGACUAACACUGUAUCGCCAGCUGCUGCACAGCCACAAGCAGAUUGCCAAGAUAACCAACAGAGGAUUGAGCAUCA` the bound/input enrichment was 0.156 ratio.
The bound/input enrichment of `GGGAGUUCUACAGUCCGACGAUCACCAGGGGAACUUCCAUCAAGGAGUUCCGGGAGAUGACCCUCAGCUUCCUCAAGGCUAACUUAGGAGACCUGCCUUCCCUGCCAGCGCUGGUUGACCAGAUACUUCUCAUGGCGGACUUCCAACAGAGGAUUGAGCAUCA` is reported as 0.137 ratio.
The bound/input enrichment of `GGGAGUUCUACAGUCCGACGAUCCUGAACAUUUUGAAGCUUGCUCCUGGUGGGCAUGUGGGACGUUUCUGCAUUUGGACUGAAAGUGCUUUCCGGAAGUUAGAUGAAUUGUACGGCACUUGGCGUAAAGCCGCUUCCCUCAAGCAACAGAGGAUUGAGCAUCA` is reported as 1.01 ratio.
The bound/input enrichment of `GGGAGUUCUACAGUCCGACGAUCCGAUCAGGGGAUAGUGAAGUUUACCAACUGGGUGAUGUCAGUCAAAAGACAACAUGGCACAGAAUAUCAGUAUUCCGGCCAGGCCUCAGAGACGUGGCAUAUCAAUAUGUGAAAAAGGGGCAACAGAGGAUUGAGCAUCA` is reported as 0.351 ratio.

Sample 4 — method: protein binding microarray; form: double-stranded DNA, one strand shown; matrix: in vitro; tested at: not given; reference: not given; direction: higher = stronger binding
Target: Histone acetyltransferase KAT6A, winged helix 2, GST fusion (KAT6A, Homo sapiens, UniProt Q92794, residues 85-181)
Notes: 8-mer, flanks averaged, mean of 2 arrays, mostly near background
Residues (chain): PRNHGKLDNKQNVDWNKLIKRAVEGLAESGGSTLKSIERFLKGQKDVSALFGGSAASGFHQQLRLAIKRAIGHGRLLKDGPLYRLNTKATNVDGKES
`ACTGGTAG` has an E-score of -0.0563.
The E-score of `GAAATCGA` is reported as -0.00764.
`AGCGGAGA` has an E-score of 0.098.
For `TCGTCTCA`, the E-score was -0.0817.
With `AGAAAGAC` the E-score was -0.0427.
`AGGCCAGC` gave an E-score of 0.0967.
The E-score of `AACGTAGT` is reported as 0.0933.
With `CAAGTGGA` the E-score was -0.0789.
The E-score of `CAAGGTAA` is reported as 0.00287.
The E-score of `CTTATTAC` is reported as -0.0903.
The E-score of `GTGCCTCA` is reported as -0.134.
For `CTTACAAC`, the E-score was 0.0134.
With `CTTACCGA` the E-score was -0.00604.
For `TGGTAAAA`, the E-score was 0.155.
With `CAGCATAC` the E-score was -0.0393.
With `AACCGCCT` the E-score was 0.0625.
The E-score of `TGGCGCAA` is reported as -0.0724.
With `ATGTCGAG` the E-score was -0.1.
With `CCCCGTAC` the E-score was -0.0913.
`TGATATAA` gave an E-score of -0.0633.
`AAGATATG` has an E-score of 0.173.
`ACGTTTGC` gave an E-score of -0.0192.
`CGCCGGGA` gave an E-score of 0.179.
For `AGGCCGTA`, the E-score was 0.233.
`AAGGGCGG` has an E-score of 0.0324.

For quick reference, copied from above (sample 1):
The log2 enrichment of `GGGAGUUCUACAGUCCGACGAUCGAAAUUUGGUUAUGUGGAUUUUGAAUCUGCUGAAGACCUGGAGAAAGCGUUGGAACUCACUGGUUUGAAAGUCUUUGGCAAUGAAAUUAAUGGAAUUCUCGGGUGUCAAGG` is reported as -3.67.
With `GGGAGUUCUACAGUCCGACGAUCUCCUCAAGUCCUGUGCUACACAUCGUAUGUACCGAAUCGGGUGGGUGGGUGGAAAGUAUUAUGUUACGCCGUUCGGAUCUGCACUUCCAGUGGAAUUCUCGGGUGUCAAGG` the log2 enrichment was 0.645.
`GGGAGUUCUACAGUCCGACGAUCCCUCUGGACGAGACCAGCCAGAUGAGCGACCUCCCGGUGAAGGUGAUCCACGUGGAGAGUGGGAAGAUCCUCACAGGCACAGAUGCCCCCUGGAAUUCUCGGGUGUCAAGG` has a log2 enrichment of 0.438.
The log2 enrichment of `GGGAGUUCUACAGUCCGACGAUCAAGUCCUGUGCUACACAUCGUAUGUACCGAAUCGGGAGGGAAAAAGGGAAAAAGGGAAAGUAUUAUGUUACGCCGUUCGGAUCUGCACUUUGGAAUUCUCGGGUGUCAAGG` is reported as 0.229.
